Measurements gathered from unrelated publications.
± gives the spread as reported.
mutY full length assumed E37S: mutY full length assumed E37S (Escherichia coli, UniProt P17802)
T1: TIA1 RRM2-3, residues 93-274 (Homo sapiens); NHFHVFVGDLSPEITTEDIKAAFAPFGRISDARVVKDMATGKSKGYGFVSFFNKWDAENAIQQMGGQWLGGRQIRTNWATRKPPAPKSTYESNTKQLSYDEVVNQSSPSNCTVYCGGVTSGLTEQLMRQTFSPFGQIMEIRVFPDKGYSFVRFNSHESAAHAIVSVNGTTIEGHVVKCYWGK
Sequence of UniProt Q96T21 (whole entry, looked up): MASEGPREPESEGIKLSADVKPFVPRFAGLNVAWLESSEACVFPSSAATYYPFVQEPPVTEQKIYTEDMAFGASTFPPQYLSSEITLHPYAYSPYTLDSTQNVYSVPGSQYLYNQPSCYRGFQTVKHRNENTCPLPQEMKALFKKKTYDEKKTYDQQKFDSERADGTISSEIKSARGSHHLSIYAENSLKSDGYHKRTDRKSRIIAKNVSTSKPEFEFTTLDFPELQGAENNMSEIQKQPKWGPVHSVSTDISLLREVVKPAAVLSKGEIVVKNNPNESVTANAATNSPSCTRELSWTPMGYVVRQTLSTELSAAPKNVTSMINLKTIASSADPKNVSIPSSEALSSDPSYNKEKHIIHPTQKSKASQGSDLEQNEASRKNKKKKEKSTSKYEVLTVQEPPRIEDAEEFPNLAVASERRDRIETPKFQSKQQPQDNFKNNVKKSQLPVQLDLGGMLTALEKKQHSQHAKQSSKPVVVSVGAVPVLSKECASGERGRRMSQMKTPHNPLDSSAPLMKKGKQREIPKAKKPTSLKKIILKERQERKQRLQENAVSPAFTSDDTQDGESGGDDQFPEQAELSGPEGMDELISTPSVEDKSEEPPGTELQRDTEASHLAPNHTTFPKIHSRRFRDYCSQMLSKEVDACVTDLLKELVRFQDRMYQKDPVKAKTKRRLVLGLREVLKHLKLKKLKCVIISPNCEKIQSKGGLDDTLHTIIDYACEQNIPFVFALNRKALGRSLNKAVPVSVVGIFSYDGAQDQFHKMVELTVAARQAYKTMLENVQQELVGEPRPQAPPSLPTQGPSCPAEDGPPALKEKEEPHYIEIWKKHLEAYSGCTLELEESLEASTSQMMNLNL
Sequence of UniProt P14780 (whole entry, looked up): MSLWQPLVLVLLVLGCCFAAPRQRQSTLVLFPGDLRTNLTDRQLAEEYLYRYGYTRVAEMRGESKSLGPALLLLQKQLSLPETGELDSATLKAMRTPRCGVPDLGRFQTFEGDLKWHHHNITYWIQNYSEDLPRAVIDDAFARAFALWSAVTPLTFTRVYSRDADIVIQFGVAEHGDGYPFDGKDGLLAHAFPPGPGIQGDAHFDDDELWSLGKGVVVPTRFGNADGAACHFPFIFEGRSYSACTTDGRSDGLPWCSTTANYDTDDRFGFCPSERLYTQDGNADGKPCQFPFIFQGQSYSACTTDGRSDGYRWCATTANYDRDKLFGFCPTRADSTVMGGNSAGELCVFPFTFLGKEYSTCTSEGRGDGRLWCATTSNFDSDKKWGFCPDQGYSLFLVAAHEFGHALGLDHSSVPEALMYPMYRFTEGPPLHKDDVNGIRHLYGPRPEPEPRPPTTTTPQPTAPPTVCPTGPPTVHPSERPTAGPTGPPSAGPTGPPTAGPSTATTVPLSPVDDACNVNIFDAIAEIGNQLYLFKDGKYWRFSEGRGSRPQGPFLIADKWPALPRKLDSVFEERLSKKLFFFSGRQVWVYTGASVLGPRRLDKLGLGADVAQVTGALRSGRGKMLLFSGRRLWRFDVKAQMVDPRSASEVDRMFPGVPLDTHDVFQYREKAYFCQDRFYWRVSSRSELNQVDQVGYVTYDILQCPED
Sequence of UniProt Q80W65 (whole entry, looked up): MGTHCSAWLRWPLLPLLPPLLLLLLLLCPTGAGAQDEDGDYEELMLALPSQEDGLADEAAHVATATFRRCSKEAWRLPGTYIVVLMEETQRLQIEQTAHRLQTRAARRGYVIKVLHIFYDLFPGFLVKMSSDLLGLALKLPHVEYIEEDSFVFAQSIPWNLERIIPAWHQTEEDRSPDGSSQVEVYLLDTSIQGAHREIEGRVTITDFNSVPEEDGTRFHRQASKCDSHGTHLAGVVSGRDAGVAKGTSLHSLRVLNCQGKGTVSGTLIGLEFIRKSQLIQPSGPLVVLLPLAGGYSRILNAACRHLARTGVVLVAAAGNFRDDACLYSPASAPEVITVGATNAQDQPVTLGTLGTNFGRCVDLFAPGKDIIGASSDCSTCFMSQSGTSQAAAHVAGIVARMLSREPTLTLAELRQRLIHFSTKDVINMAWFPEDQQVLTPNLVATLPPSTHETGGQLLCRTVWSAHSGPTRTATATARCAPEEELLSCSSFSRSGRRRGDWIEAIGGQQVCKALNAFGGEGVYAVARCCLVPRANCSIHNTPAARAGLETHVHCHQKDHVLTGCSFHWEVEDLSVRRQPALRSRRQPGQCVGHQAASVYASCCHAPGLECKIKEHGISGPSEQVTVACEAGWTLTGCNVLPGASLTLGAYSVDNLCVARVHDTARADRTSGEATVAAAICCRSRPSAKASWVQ
Sequence of UniProt Q01196 (whole entry, looked up): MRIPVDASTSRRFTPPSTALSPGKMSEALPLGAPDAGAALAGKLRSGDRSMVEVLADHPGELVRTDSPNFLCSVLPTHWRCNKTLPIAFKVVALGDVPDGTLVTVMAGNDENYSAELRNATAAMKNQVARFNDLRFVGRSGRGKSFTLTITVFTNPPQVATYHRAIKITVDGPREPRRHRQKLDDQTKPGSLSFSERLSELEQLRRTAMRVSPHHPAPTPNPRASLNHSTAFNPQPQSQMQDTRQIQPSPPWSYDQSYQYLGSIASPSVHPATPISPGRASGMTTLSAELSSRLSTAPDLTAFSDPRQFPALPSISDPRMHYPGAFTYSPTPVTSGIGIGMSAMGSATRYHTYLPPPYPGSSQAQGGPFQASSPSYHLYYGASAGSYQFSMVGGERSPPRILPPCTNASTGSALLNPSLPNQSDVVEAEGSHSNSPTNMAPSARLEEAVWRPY
Sequence of UniProt P21499 (whole entry, looked up): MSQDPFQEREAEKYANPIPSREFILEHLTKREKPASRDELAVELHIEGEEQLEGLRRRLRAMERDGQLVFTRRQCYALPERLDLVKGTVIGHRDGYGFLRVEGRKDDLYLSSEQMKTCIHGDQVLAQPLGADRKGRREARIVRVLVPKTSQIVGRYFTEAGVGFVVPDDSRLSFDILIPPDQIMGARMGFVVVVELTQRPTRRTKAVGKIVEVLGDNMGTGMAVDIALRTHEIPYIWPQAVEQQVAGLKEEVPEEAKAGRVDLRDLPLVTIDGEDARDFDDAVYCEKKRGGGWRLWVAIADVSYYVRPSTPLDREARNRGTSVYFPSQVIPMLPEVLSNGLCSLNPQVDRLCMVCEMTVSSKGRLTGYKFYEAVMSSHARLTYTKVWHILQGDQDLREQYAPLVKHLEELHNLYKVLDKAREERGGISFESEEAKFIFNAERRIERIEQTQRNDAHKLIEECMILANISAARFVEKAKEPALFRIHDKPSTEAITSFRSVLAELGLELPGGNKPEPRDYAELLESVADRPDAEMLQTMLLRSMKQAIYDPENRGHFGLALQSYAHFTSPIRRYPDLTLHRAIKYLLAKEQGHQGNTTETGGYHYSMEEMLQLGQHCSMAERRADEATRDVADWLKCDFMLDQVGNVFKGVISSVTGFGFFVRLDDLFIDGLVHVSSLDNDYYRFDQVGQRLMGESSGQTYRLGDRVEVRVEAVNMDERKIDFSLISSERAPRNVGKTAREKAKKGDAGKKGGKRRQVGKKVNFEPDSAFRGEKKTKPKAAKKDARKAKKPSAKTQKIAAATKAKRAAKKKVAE
Sequence of UniProt P27695 (whole entry, unmodified, looked up): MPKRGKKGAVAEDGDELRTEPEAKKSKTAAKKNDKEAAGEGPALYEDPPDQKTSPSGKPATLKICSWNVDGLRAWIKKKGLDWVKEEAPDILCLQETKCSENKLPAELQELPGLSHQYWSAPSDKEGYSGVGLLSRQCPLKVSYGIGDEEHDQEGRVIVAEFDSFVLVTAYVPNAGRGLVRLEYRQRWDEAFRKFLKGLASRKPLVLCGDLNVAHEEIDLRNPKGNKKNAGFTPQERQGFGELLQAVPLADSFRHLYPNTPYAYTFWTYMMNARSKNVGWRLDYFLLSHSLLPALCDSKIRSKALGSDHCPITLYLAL
Sequence of UniProt P19525 (whole entry, looked up): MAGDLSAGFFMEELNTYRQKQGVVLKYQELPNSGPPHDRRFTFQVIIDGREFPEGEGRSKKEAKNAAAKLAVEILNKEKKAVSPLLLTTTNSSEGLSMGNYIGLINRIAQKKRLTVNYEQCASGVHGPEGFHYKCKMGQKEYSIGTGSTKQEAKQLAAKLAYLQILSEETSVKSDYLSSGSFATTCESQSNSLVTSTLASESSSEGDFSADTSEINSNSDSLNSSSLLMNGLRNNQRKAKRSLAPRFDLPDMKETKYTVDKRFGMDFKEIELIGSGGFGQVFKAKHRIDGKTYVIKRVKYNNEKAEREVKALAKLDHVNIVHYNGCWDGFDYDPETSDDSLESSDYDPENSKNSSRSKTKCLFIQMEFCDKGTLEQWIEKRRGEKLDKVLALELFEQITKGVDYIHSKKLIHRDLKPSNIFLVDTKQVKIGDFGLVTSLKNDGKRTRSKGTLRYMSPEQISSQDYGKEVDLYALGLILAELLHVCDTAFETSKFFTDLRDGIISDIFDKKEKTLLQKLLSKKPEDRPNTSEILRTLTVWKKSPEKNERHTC
Sequence of UniProt P0DX76 (whole entry, looked up): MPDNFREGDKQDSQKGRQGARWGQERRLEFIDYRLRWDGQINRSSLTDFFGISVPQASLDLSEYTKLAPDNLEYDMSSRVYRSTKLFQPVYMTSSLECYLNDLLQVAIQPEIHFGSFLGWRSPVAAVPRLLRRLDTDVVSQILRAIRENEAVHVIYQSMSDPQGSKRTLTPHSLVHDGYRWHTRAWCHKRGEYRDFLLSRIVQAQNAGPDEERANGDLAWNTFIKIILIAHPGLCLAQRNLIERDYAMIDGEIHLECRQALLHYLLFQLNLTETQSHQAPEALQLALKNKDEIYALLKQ

DNA 1 CGATCATGGAGGCTAGCGCTCCCGTTACAG / DNA 2 CTGTAACGGGAGCGATAGCCTCCATGATCG (dsDNA; 30 bp, central G:A mismatch)  Kd (mutY full length assumed E37S; EMSA; double-stranded DNA): 0.24 ± 0.08 nM
TTTTTTT (ssDNA)  Kd (capW 1-299 (Escherichia coli, UniProt P0DX76); fluorescence polarization; single-stranded DNA; together with: Mg2+ 5 mM): 9540 nM
CTGACCAAAACAAAAAATCTCCAAAAAACTCGAAAAAAGTGGTCAGTT (dsDNA)  Kd (protein holo R370Q/R371Q (Bacillus clausii, UniProt A0A268NVG2); fluorescence titration; double-stranded DNA, one strand shown; Mg2+ 5 mM, apparent, Hill fit, together with: PLP): 46.5 ± 3.3 nM
ACAGGUGGGCGCGUGAUUAUGUUUGUACGAAGACUGU (ssRNA; 4'-thio at all pyrimidines, stem-bulge-loop)  Kd (F2 alpha-thrombin (Homo sapiens); filter binding; modified nucleic acid; together with: Mg2+ 1 mM): 4.7 nM
GCAGCCCAUGAUGGCUGAAUCCGAAAUCCUCGAUGGGUCCAGCUUGAUGUCUUUGCAGC (RNA hairpin (Homo sapiens); K-turn internal loop)  Kd (SECISBP2 515-854 (Homo sapiens, UniProt Q96T21); EMSA; together with: Mg2+ 1.5 mM): 160 nM
GGGGGGUUUUUUUUUUUUUUUUUGGGGG (ssRNA)  Kd (TIAL1 8-175 (Homo sapiens, UniProt Q01085); SPR; RNA): 1200 ± 20 nM
AAAA (ssRNA)  Kd (rnr full length assumed (Escherichia coli, UniProt P21499); filter binding; RNA; EDTA present): 1200 ± 90 nM
CGGGGCGGGCCGGGGGCGGGGT (G-quadruplex DNA; parallel in K+)  Kd (APEX1 34-318 D210A/del1-33 (Homo sapiens, UniProt P27695); fluorescence anisotropy; folded DNA; K+ 50 mM, together with: Mg2+ 10 mM): 230 ± 40 nM
DNA 1 CGATCATGGAGGCTAGCGCTCCCGTTACAG / DNA 2 CTGTAACGGGAGCGATAGCCTCCATGATCG (dsDNA; 30 bp, central 8-aminoguanine:A)  Kd (mutY full length assumed E37S; EMSA; double-stranded DNA): 0.5 ± 0.2 nM
UGGAGCCUUCCACCCCGGCACUCAUGACGGUCUGCCGAAAUCCUCGAUGGCAGUCCCGAGGACCUGGCGUGCAUCCCCGCCGGAGGAAGGUCCA (structured RNA)  Kd (Sbp2 full length assumed (Drosophila melanogaster, UniProt Q9VSH1); EMSA; folded RNA): 230 ± 30 nM
CTGACCTCATCATTTTCTTAAAAACTGACACTTACAATGTGGTCAGTT (dsDNA)  Kd (protein holo K126Q/K129Q (Bacillus clausii, UniProt A0A268NVG2); fluorescence titration; double-stranded DNA, one strand shown; Mg2+ 5 mM, apparent, Hill fit, together with: PLP): 36.6 ± 1.7 nM
UGGAGCCUUCCACCCCGGCACUCAUGACGGUCUGCCUGAAAACCAGCCCGCUGGUGGGGCAGUCCCGAGGACCUGGCGUGCAUCCCCGCCGGAGGAAGGUCCA (structured RNA)  Kd (SECISBP2 (Homo sapiens, UniProt Q96T21); EMSA; folded RNA): 320 ± 5 nM
RNA 1 GGAGGAUGUUAAUUGGCGUGUCUUGUCUGCAACGGUAUUC / RNA 2 GAAUACCGUUGCAGACAAGACACGCCAAUUAACAUCCUCC (dsRNA)  Kd (EIF2AK2 1-551 (Homo sapiens, UniProt P19525); sedimentation velocity AUC; double-stranded RNA; Kd1 first PKR): 166 nM
DNA 1 CGATCATGGAGGCTAGCGCTCCCGTTACAG / DNA 2 CTGTAACGGGAGCGATAGCCTCCATGATCG (dsDNA; 30 bp, central 7-methyl-8-oxoguanine:A)  Kd (mutY full length assumed E37S; EMSA; double-stranded DNA): 0.02 ± 0.01 nM
GUUAUAUUCUCCUUUC (ssRNA)  Kd (T1, TIA1 RRM2-3, residues 93-274 (Homo sapiens); ITC; RNA; reverse titration): 216 ± 47.6 nM
GCAGCCCAUGAUGGCUGAAUCCGAAAUCCUCGAUGGGUCCAGCUUGAUGUCUUUGCAGC (structured RNA)  Kd (Sbp2 full length assumed S95I/V96I/R97L/V98K/Y99E (Drosophila melanogaster, UniProt Q9VSH1); EMSA; folded RNA): 200 ± 10 nM
TTTTTTTTTTTTTTTTTTTT (ssDNA)  Kd (TIAL1 96-175 (Homo sapiens, UniProt Q01085); SPR; single-stranded DNA): 15200 ± 350 nM
AACGUACUUUAAGGCCUAUUGAGGAAACUC (ssDNA; all dC Pp-dC; all dU Nap-dU)  Kd (Pcsk9 35-694 (Mus musculus, UniProt Q80W65); filter binding): 0.077 nM
TACGGCCGCACGAAAAGGTGCCCCATAACTCAATGCCGTA (ssDNA)  Kd (MMP9 20-707 (Homo sapiens, UniProt P14780); SPR; single-stranded DNA): 13.4 nM
DNA 1 CGATCATGGAGGCTAGCGCTCCCGTTACAG / DNA 2 CTGTAACGGGAGCGATAGCCTCCATGATCG (dsDNA; 30 bp, central 8-thioguanine:A)  Kd (mutY full length assumed E37S; EMSA; double-stranded DNA): < 0.003 nM
GGGACACAAUGGACGACCCACCACGGCGAGGUAUCCCAUUGCCCCUAACGGCCGACAUGAGAG (structured RNA)  Kd (RUNX1 1-188 (Homo sapiens, UniProt Q01196); SPR; folded RNA): 3.6 ± 0.1 nM
CTGACCTCATCATCTCCCTACACACTGACACTTACAATGTGGTCAGTT (dsDNA)  Kd (protein holo K360Q/R364Q (Bacillus clausii, UniProt A0A268NVG2); fluorescence titration; double-stranded DNA, one strand shown; Mg2+ 5 mM, apparent, Hill fit, together with: PLP): 54.8 ± 5.4 nM

For quick reference, copied from above:
GCAGCCCAUGAUGGCUGAAUCCGAAAUCCUCGAUGGGUCCAGCUUGAUGUCUUUGCAGC (structured RNA)  Kd (Sbp2 full length assumed S95I/V96I/R97L/V98K/Y99E (Drosophila melanogaster, UniProt Q9VSH1); EMSA; folded RNA): 200 ± 10 nM
CTGACCAAAACAAAAAATCTCCAAAAAACTCGAAAAAAGTGGTCAGTT (dsDNA)  Kd (protein holo R370Q/R371Q (Bacillus clausii, UniProt A0A268NVG2); fluorescence titration; double-stranded DNA, one strand shown; Mg2+ 5 mM, apparent, Hill fit, together with: PLP): 46.5 ± 3.3 nM
